# Published values pooled from the literature.
# A part holds a random share of what one study measured. Changes are numbered by the printed parent chain.

# Set 1
# Target: Interferon regulatory factor 7, full length, phosphomimetic (IRF7, Homo sapiens, UniProt Q92985, residues 1-503, S471D/S472D/S475D/S476D/S477D/S483D/S484D/S487D)
# Method: protein-binding microarray
# Molecule type: double-stranded DNA, one strand shown
# Matrix: in vitro
# Tested at: 2200 nM top
# Notes: 60-bp whole probe
# Added: salmon DNA 0.4 mg/ml
# Relative to: random background probes
# Reading: higher = stronger binding
# All sequences stand within: GCCTAGCAC … GTCTTGATTCGCTTGACGCTGCTG
# Residues (chain): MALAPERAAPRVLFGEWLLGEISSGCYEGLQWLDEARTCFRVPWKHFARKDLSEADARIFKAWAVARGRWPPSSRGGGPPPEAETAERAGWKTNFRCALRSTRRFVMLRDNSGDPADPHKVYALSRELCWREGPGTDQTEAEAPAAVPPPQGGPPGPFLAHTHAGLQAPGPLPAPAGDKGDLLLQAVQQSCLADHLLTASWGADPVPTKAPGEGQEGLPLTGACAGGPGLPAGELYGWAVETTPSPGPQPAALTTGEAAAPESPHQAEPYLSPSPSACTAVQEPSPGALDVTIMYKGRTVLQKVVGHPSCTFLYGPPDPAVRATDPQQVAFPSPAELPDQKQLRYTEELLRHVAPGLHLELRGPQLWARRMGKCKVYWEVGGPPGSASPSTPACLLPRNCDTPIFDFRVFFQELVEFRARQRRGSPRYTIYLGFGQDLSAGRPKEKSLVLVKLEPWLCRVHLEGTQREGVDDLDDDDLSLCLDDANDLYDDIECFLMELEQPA
Oligonucleotide,fitted relative affinity [z-score]
TCAGGTCTGGGTATTTTACTGTGCTAG,0.036
CTAGGACTGGGACTGGGTTAGTGCTAG,-1.19
TCATCTTTCCATACTGCACTGTGCTAG,2.62
CTTTTATGCTCTTTCTACATGTGCTAG,2.13
GACAATTTCAGTTTCGAGACGTGCTAG,5.55
AGACTTTTTTCAGACCTGTCGTGCTAG,0.563
GACGGTTCCAGTTTCGGGACGTGCTAG,4.57
AACTGCATCCCAGGAGCTGGGTGCTAG,-0.234
TTAGATTTGAGTTCCGATTAGTGCTAG,0.628
TTAGGTTTCGGTTCCGGGTAGTGCTAG,11.5
TTAGATTTCGGGTTTCCATTAGTGCTA,4.71
TTAGAACTGAGTATCGATTAGTGCTAG,-0.134
GACGGTTGCCTTTTCCTGACGTGCTAG,1.32
GACGAACTGGGGACTGCAGACGTGCTA,-0.0941
GACGGTCTCCTTCTCCAGACGTGCTAG,1.03
TTGGAACTGAGTATCGATTAGTGCTAG,0.0607
GACGGTTTCGGGACTGGGGACGTGCTA,3.64
GACGGACTGGGTATCGCGACGTGCTAG,-0.566
TAGCTTCCATTTTCTGAACGTGTGCTA,2.97
TGTCATTTACATTTTAGTAGGTGCTAG,1.16
GTAGAAAATTCATGTTATAAGTGCTAG,-0.137
TTTACTTTCTGAATGCTCCCGTGCTAG,6.19
GAAGGACTGGGACTGGGGACGTGCTAG,-0.89
GACGATTTCGGGTATCGCGACGTGCTA,2.8
CAGTTTCTCTTTCCTTCTTGGTGCTAG,9.81

# Set 2
# Target: TEF, bZIP domain (human)
# Method: DHFR protein complementation
# Matrix: yeast
# Notes: single substitutions, most at no-binding floor
# Relative to: wild-type JUN-FOS pair
# Reading: higher = stronger binding
# Starting sequence: JUN, bZIP domain (human); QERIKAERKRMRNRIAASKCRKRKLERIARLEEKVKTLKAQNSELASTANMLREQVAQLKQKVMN; partner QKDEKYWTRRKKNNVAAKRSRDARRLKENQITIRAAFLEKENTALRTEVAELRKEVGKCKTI
Substitution,binding fitness [natural log]
N42V,-1.42
L45K,-1.59
A49T,-1.22
I28Y,-0.939
A40F,-1.16
S43F,-1.55
L45E,-1.57
L52S,-1.51
V35E,-1.55
V56E,-1.53
S47P,-1.48
R30W,-1.44
E44Q,-1.31
L52R,-1.48
L38K,-1.44
K39M,-1.44
S47T,-1.48
L31E,-1.51
R30K,-1.51

# Set 3
# Target: Sal-like protein 4, full length isoform B (SALL4, Homo sapiens, UniProt Q9UJQ4-2, residues 1-616)
# Method: universal PBM
# Molecule type: double-stranded DNA, one strand shown
# Matrix: in vitro
# Tested at: not given
# Notes: 8-mer, flanks averaged, mean of replicates
# Reading: higher = stronger binding
Oligonucleotide,E-score
AGATGAAA,0.187
GGACATTA,0.146
GAAACCCC,-0.26
ATAAAGCA,0.205
AGGCAGCG,-0.236
GGGCATGA,-0.284
CTTACAAC,0.206
AACCGACT,-0.221
AAAATAGC,0.0897
ACACCGTG,-0.166
ATACGAAG,0.174
AGTCACCG,-0.334
GCAGCACC,-0.17
CAAACAAG,-0.178
GAAGAGTC,-0.0403
TGCCGCAA,0.089
GAGCGGGA,-0.0898
AACAAGAA,0.207
AACGGTCT,-0.111
AAATTGCT,0.121
TACCACTA,0.0692
AAGCCTGT,-0.0439

# Set 4
# Target: RNA binding protein fox-1 homolog 2, RRM domain, GST-SBP tag (RBFOX2, Homo sapiens, UniProt O43251-10, residues 100-194)
# Method: RNA Bind-n-Seq
# Molecule type: RNA
# Matrix: in vitro
# Tested at: 365 nM
# Notes: natural RNA segment, single round, ends assumed
# Relative to: no-protein control
# Reading: higher = stronger binding
# All sequences stand within: GGGAGUUCUACAGUCCGACGAUC … UGGAAUUCUCGGGUGCCAA
# Residues (chain): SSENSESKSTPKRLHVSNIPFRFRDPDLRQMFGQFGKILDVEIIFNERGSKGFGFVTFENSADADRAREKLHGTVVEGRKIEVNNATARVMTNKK
Oligonucleotide,RBNS enrichment (R)
AGACUCUCCAGGACUGAGGACAGAGCUGCUCUUCUUCUUCUACGUUACUGUGGCCCUCUUGUCUGGCAGCCUGGAGCCCAGGGAGGGACAGGGGCUUAUAGCUGCUGUAU,0.764
CGAGGUUUUAAAGGGUGCCAUGGGCUCUCACGUCCUUCGUGUUGCAGUAUUUAUUUUUACUGGGUGAGGAUUUUUCAACUUAACGUUUUAGGACUUAACCAAAUAACCAG,0.409
UCUGGGUCCCUGAGCAGGAGGAGGAGCUGUGAACAAGUCAGACCAAUAAAACCAGGUUUGCACUGCCCUGGCUGCUGUUCUGUGGGCACUGAGCACUUGGGAUGGACGGG,0.601
GGCAACCCAGAAAAAGUGCUCCCCACAUCCUUCUGAGACUUGGCCUGUGUGUGUGGACGAGAAGCCAUUCACCGUAAGGGUGCAGAAAGCUCGACCAAGCCGAAUUGCAA,0.639
CCUUCUCCCGGUCUGCUGAUCACUCUUUCAUGCCUGUGUAUCCAGGGUGCUCUGUUUCCCCACCGUUCCCAGGUGUACGAGGCAGAGGGCCGGGACAGCUUUCCUCUCAG,0.271
UUGGCCAGACCCUCUGUCCAAGGCUCAUUAGAAGGCUGGGGUUGUGUUCAGGUGACAGACUUUAUCAAAACUAUUGCUGUUUUGGCAUGAGUUGUGUUUCUGGACUGUUU,0.374
GGCGGCUCUUUCUACAGCUGAACUCCUCCUCAGUUGAGUUUUCAGUUUCUGGCUUGCUUCUCCCUUUGUAUAGGGGAGAACAGAGAAGAGGUUUAUGCUGAGGGGGGGUG,7.39
ACCUUAUUGGAUAUUUGAUAUUUGGUUAUUUAAUCACAGUCAUCUUUAACAGCUUACACUGAUUGGUGUUUUAUCUCCUGUGAUCCUUUGAUGGCUUUUUUUGCCUACCA,0.334
AAAAUGAUUGUAUAUAGUAUUCUUAAAACCAUGUGUCUUGGUGCAGAAAUAUUGACAAAUGCUGGCCAGCUUUAUCUUCCUAUAUCCUUCAUUAAAAGUAUAUGCAUAUA,0.546
AGGAGUACCCAUGCACAGCAGCUGUGGGGUGUGGGCAUCUUCAGGUGGUGUUCUGGUAAAAUUGUUAGAAUAGCUGUAUGAAGGAAACCAGUGGGAGGAAAUGAAGUUUU,0.963
GGGCAAUGUCACCCUCCUGGUAGGUAGUCCUAGACCCCUCCUGCCUCUUGCUCUCCAAUGGGGAGACCAUGUUUCCUAGAGUGUGAGCUGCCCCUCACCCCCUGAAAAGC,0.227
CUUGGGUUCAUGGAUUAGUUUUGUAUCUAAAACAGGAAACAAGUCAGAUGAUGUGGUUUGUACACUUUCUGUAACCACCAGUGUGGACUUGAAGAAGUGUCCUCAGCAUG,3.37

# Set 5
# Target: Histone acetyltransferase KAT6A, both winged helices, GST fusion (KAT6A, Homo sapiens, UniProt Q92794, residues 1-181)
# Method: protein binding microarray
# Molecule type: double-stranded DNA, one strand shown
# Matrix: in vitro
# Tested at: not given
# Notes: 8-mer, flanks averaged, mean of 2 arrays, mostly near background
# Relative to: not given
# Reading: higher = stronger binding
# Target sequence (chain): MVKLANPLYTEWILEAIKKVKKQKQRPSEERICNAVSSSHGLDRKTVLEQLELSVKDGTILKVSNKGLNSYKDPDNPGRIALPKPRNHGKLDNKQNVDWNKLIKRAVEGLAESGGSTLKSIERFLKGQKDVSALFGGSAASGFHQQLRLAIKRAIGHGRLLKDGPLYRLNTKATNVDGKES
Oligonucleotide,E-score
AAGTCGGC,0.0677
AGTGTCGC,0.0575
GTAGTCAC,-0.0611
AGAATAAA,-0.18
CATAGGCC,0.00677
AAACGATA,-0.148
CAGGTAGC,0.049
GGATATAA,-0.0881
ACAGGTAA,-0.0635
AATCACGT,-0.0339
GATAACAC,0.00392
CTCGTCTC,-0.0121
CAGGTATA,-0.0619
ACTTTCCA,-0.289
CTCTCCCC,-0.252
ATTATCTA,-0.0558
TAAGTGCA,-0.151
GAGTGGGC,0.0116
CGCTTCCC,0.283
CGGCTATA,0.264
ACCCAGCT,-0.212
GCCATGAC,0.00649
CAAAAGCG,0.255
ATTAGGGC,-0.213
CTAGGATC,-0.086

# Some of these lines once more (set 5):
Oligonucleotide,E-score
GTAGTCAC,-0.0611
AGTGTCGC,0.0575
AATCACGT,-0.0339
CTCGTCTC,-0.0121
AAACGATA,-0.148
TAAGTGCA,-0.151
ATTATCTA,-0.0558
ACCCAGCT,-0.212
ACTTTCCA,-0.289
ATTAGGGC,-0.213
ACAGGTAA,-0.0635
